# Measurements gathered from unrelated publications.
# A part holds a random share of what one study measured. Positions count from the first letter of the parent shown.

# Sample 1 — method: aptamer microarray, sandwich; form: DNA with 2'F-ANA; matrix: in vitro; tested at: 200 nM; added: Cy3 exosite-II aptamer, 400 nM; direction: higher = stronger binding; strand: GGTTGGTGTGGTTGG
# Target: Prothrombin, mature alpha-thrombin (F2, Homo sapiens, UniProt P00734)
# Notes: whole 15-mer aptamer, many near background
Modification,mean fluorescence intensity
2'F-ANA at 2 7 11 12 15,691 a.u.
2'F-ANA at 4 5 6 7 8 10 12 13 14,48.6 a.u.
2'F-ANA at 1 3 6 7 9 15,246 a.u.
2'F-ANA at 1 2 3 4 5 6 8 10 11 12,67 a.u.
2'F-ANA at 2 5 6 7 9 11 13,60 a.u.
2'F-ANA at 2 4 5 7 8 9,85.9 a.u.
2'F-ANA at 6 7 8 11 12 13,660 a.u.
2'F-ANA at 1 3 4 5 6 7 9 15,60.3 a.u.
2'F-ANA at 1 3 5 6 7 9 10 11 12 13 15,52.9 a.u.
2'F-ANA at 1 4 10 11 13 14 15,44.5 a.u.
2'F-ANA at 1 4 5 6 8 9 10 12,47.5 a.u.
2'F-ANA at 1 2 3 6 10 11 13,120 a.u.
2'F-ANA at 2 3 5 7 9 12 15,196 a.u.
2'F-ANA at 1 3 6 8 10 12 13 14 15,65.3 a.u.
2'F-ANA at 1 2 3 6 8 9 10 12 14,56.2 a.u.
2'F-ANA at 4 5 6 7 8 9 12 14,50.1 a.u.
2'F-ANA at 2 3 5 6 7 8 10 11 12 15,59.9 a.u.
2'F-ANA at 1 2 3 6 8 10 11 12,87.8 a.u.
2'F-ANA at 5 6 9 11,61.1 a.u.
2'F-ANA at 1 6 8 12 13 14,73.1 a.u.
2'F-ANA at 2 3 5 6 7 8 13 14,51.3 a.u.

# Sample 2 — target: CCND1, cyclin fold, Cln2 fusion (human); method: yeast growth competition, sequencing; matrix: yeast; notes: weak parent motif; reference: not given; direction: higher = stronger binding
# Starting sequence: MICAL3 docking peptide (human); LQLRRQLSFSEDS
Variant,normalised enrichment score
L7Y,0.0398
R5D,0.136
Q2C,0.65
S8E,-0.303
D12C,0.907
Q2Y,0.519
R4L,-0.11
L7A,-0.164
S8Q,-0.00894
Q6C,0.754
S10W,-0.197
S8V,-0.0627
L3Q,-0.000232
S10C,0.461
L3G,0.332
L3R,0.239
R4F,0.221

# Sample 3 — method: DHFR PCA, deep sequencing; matrix: yeast; added: (+)-ABA 710 µM; reference: wild-type fitted maximum; direction: higher = stronger binding
# Target: ABI1, truncated, D143A, DHFR fusion (Arabidopsis thaliana)
# Notes: methotrexate growth selection, single substitutions
# Starting sequence: PYL1, truncated, DHFR fusion (Arabidopsis thaliana); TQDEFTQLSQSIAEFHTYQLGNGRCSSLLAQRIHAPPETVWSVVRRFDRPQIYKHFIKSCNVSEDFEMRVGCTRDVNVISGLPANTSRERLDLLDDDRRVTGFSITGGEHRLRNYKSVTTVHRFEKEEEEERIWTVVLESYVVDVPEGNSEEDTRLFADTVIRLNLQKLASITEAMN; partner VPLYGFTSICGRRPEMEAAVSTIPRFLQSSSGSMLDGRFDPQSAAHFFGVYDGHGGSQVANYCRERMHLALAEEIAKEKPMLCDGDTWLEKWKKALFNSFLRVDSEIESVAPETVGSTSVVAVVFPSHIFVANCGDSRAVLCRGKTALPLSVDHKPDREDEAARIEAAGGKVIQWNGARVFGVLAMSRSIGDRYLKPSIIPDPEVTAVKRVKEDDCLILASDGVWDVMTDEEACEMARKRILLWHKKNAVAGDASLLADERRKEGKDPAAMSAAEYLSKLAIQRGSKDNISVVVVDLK
Variant,relative binding score
T120P,0.357%
E139G,41%
Q51Y,93.8%
I12L,91%
N114G,102%
G21K,97.8%
V76R,13.6%
P50G,14.7%
Y141W,74.2%
V118F,80.2%
A35T,86.3%
I105K,-1.31%
V142E,96.2%
A30D,89.7%
A84E,46.1%

# Sample 4 — method: protein binding microarray; form: double-stranded DNA, one strand shown; matrix: in vitro; tested at: not given; reference: not given; direction: higher = stronger binding
# Target: Histone acetyltransferase KAT6A, winged helix 2, GST fusion (KAT6A, Homo sapiens, UniProt Q92794, residues 85-181)
# Notes: 8-mer, flanks averaged, mean of 2 arrays, mostly near background
# Construct (chain): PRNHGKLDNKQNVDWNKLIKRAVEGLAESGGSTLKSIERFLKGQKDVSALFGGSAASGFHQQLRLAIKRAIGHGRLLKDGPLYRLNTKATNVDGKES
Strand,E-score
CTGCTACA,0.165
GAGCAGCA,0.247
AACAATTC,-0.0254
ATTGTGAG,0.0483
AAAATCCG,0.117
GATTGGCC,-0.0265
CCGTACCC,0.0309
ATTTCATC,0.127
GGGAGCCA,0.0413

# Sample 5 — method: protein-binding microarray; form: double-stranded DNA, one strand shown; matrix: in vitro; tested at: not given; direction: higher = stronger binding
# Target: Protein max, full length (MAX, Homo sapiens, UniProt P61244-2, residues 1-151)
# Notes: k-mer, scored over probes, only values ≥0.25
Strand,E-score
CACGAGGG,0.471
ACCTGCAC,0.262
CCACGAGA,0.388
ATCCACAT,0.379
ATGTGACA,0.328
AGGTGGCA,0.251
ACGCACAC,0.355
ACGACGTG,0.367
AGCGCGTG,0.451
GGGCGGGA,0.256
CCCCAACC,0.304

# Sample 6 — method: universal PBM; form: double-stranded DNA, one strand shown; matrix: in vitro; tested at: 600 nM; direction: higher = stronger binding
# Target: Sal-like protein 4, full length isoform A (SALL4, Homo sapiens, UniProt Q9UJQ4, residues 1-1053)
# Sequence of UniProt Q9UJQ4 (whole entry, looked up): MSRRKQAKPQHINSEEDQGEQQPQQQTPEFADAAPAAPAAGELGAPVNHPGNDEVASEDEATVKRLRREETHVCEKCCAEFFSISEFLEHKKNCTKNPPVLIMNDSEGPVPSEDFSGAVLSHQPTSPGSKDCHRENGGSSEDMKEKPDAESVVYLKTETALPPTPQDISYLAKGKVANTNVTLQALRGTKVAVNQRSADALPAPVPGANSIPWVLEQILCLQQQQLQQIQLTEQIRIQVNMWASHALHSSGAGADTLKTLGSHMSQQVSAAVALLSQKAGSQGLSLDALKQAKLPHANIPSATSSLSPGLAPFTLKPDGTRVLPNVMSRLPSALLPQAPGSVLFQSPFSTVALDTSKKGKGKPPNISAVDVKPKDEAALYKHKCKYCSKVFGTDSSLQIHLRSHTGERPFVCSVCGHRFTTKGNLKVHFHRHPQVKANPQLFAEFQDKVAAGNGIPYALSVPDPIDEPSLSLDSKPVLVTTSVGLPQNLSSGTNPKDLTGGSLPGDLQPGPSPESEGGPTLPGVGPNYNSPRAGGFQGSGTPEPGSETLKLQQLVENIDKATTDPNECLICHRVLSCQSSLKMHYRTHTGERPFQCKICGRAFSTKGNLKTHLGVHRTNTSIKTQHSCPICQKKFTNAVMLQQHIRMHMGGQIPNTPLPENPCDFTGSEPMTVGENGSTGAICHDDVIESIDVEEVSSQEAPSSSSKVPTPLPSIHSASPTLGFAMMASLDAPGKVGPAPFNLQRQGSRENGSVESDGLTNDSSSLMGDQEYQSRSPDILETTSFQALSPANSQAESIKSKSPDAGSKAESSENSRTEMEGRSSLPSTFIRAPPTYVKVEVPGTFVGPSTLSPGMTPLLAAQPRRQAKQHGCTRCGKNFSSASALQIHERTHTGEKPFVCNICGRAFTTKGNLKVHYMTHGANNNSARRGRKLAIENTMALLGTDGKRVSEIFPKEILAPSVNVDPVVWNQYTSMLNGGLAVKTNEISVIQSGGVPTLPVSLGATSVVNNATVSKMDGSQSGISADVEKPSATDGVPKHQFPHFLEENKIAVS
# Notes: 8-mer, flanks averaged, mean of replicates
Strand,E-score
CGCGGTGC,-0.388
ACCGTAAC,0.0407
CTGTATAA,0.24
CCAGCGTC,-0.367
AAGAGTTA,0.192
AATAACCA,0.336
AATACGTG,0.147
AGCTTTTC,0.00271
CCATTCTC,-0.0311
AGCGGCCC,-0.367
ATGGCGAA,0.105

# Sample 7 — method: RNA Bind-n-Seq; form: RNA; matrix: in vitro; tested at: 1 µM; notes: whole 134-nt RNA, ends assumed; added: 150 mM KCl; reference: input library; direction: higher = stronger binding
# Target: Ras GTPase-activating protein-binding protein 1, RRM domain (G3BP1, Homo sapiens, UniProt Q13283)
# Sequence of UniProt Q13283 (whole entry, looked up): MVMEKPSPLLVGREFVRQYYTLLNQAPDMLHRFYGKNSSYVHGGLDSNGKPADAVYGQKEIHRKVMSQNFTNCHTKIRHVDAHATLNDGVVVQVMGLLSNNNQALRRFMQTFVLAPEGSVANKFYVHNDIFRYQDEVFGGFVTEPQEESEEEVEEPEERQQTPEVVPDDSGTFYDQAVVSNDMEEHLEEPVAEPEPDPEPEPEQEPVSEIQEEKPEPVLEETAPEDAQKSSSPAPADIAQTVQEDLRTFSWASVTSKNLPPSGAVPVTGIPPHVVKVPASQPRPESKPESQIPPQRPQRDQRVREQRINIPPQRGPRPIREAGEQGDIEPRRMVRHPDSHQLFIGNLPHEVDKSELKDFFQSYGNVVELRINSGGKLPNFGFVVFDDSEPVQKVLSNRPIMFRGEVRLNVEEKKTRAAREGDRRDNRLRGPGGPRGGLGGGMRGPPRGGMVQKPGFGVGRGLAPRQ
# Constant ends, left off below: GGGAGUUCUACAGUCCGACGAUC … UGGAAUUCUCGGGUGUCAAGG
Strand,log2 enrichment
UCCUGUGCUACACAUCGUAUGUACCGAAUCAAAUUUUUUUAAACCCCCAAAUUUUUAAAAAAGUAUUAUGUUACGCCGUUCGGAUCUGCA,-0.609
UGGGAGGUGGAUUUUGUUUAUUUUUUUAGCUCAUUUCCAGGGGUGGGAAUUUUUUUUUAAUAUGUGUCAUGAAUAAAGAUGUUUUUGAAA,1.35
CUCAAGUCCUGUGCUACACAUCGUAUGUACCGAAUCGGAAAGGAAAGGAAAGGAAAGUAUUAUGUUACGCCGUUCGGAUCUGCACUUCCA,-0.262
GUCCUGUGCUACACAUCGUAUGUACCGAAUCGGUUUUUGGUUUUUGGGGUUUUUGGGGAAAGUAUUAUGUUACGCCGUUCGGAUCUGCAC,-0.15
AAGUCCUGUGCUACACAUCGUAUGUACCGAAUCGGGUUUGGGAAAAAGGGUUUGGGAAAGUAUUAUGUUACGCCGUUCGGAUCUGCACUU,0.756
UAGUGAAAUUUCUAAUAUAUAUAUUUUUUUCUUUAGGAGAAGAAACGAAUGCAUCAGAUCAACAGAAUGAACCCCAGUUAGGCCUGAAAG,-0.819

# Repeated from above (sample 4):
Strand,E-score
GAGCAGCA,0.247
GGGAGCCA,0.0413
GATTGGCC,-0.0265
CTGCTACA,0.165
CCGTACCC,0.0309
ATTTCATC,0.127
ATTGTGAG,0.0483
AAAATCCG,0.117
AACAATTC,-0.0254
